Assay results collected from several papers.

For `CCc1nc(N)nc(N)c1C#C[C@H](C)c1cc(-c2ccncc2)ccc1OC`, the intrinsic clearance was roughly 99 µL/min/mg (mouse liver microsomes; 0.5 µg/mL).
The intrinsic clearance of `CC(C)C(=O)N1CCC=C(c2cc3c(Nc4cc5ncsc5cc4F)ncnc3s2)C1` is reported as less than 12 mL/min/g protein (human liver microsomes; 1 µM).
`O=S1(=O)CC2CCCCC2CS1` (stereo not drawn): “intrinsic aqueous solubility” 1580 µM (NMR with water suppression; deionized water; 25.0 °C).
Under “intrinsic dissolution rate”, `COc1cc(Cc2cnc(N)nc2N)cc(OC)c1OC.O=c1[nH]cc(F)c(=O)[nH]1` is recorded as 0.11 mg cm⁻² min⁻¹ (water; 310 K, 100 rpm).
`CC(=O)NC1CC=C(c2cc3c(Nc4cc5ncsc5cc4F)ncnc3s2)CC1` (racemic) has an intrinsic clearance of less than 12 mL/min/g protein (human liver microsomes; 1 µM).
`CC(C)(C)NCC(SS(=O)(=O)O)c1ccccc1` (stereo not drawn) gave an intrinsic clearance of 0.667 µL/min/mg (mouse liver microsomes; NADPH-dependent CYP part).
The intrinsic clearance of `CC(C)C(=O)N1CC=C(c2cc3c(Nc4cc5ncsc5cc4F)ncnc3s2)CC1` is reported as less than 12 mL/min/g protein (human liver microsomes; 1 µM).
`NS(=O)(=O)c1ccc(NC(=O)NN[C@@H]2O[C@H](CO)[C@@H](O)[C@H](O)[C@H]2O)cc1` has an intrinsic clearance of 3.83 mL/min/kg (mouse liver microsomes; 1 µM).
For `CCc1nc(N)nc(N)c1C#CC(C)c1cc(-c2ccnc(OC)c2)ccc1OC` (racemic), the intrinsic clearance was 173 µL/min/mg (mouse liver microsomes; 0.5 µg/mL).

Some of these lines once more:
`CC(C)(C)NCC(SS(=O)(=O)O)c1ccccc1` (stereo not drawn) gave an intrinsic clearance of 0.667 µL/min/mg (mouse liver microsomes; NADPH-dependent CYP part).
